Published values from different studies.
Numbered parts are unrelated; each lists some results of a single study. Changes are numbered by the printed parent chain.

Series 1
Target: Sal-like protein 4, full length isoform A (SALL4, Homo sapiens, UniProt Q9UJQ4, residues 1-1053)
Chain of UniProt Q9UJQ4 (whole entry, looked up): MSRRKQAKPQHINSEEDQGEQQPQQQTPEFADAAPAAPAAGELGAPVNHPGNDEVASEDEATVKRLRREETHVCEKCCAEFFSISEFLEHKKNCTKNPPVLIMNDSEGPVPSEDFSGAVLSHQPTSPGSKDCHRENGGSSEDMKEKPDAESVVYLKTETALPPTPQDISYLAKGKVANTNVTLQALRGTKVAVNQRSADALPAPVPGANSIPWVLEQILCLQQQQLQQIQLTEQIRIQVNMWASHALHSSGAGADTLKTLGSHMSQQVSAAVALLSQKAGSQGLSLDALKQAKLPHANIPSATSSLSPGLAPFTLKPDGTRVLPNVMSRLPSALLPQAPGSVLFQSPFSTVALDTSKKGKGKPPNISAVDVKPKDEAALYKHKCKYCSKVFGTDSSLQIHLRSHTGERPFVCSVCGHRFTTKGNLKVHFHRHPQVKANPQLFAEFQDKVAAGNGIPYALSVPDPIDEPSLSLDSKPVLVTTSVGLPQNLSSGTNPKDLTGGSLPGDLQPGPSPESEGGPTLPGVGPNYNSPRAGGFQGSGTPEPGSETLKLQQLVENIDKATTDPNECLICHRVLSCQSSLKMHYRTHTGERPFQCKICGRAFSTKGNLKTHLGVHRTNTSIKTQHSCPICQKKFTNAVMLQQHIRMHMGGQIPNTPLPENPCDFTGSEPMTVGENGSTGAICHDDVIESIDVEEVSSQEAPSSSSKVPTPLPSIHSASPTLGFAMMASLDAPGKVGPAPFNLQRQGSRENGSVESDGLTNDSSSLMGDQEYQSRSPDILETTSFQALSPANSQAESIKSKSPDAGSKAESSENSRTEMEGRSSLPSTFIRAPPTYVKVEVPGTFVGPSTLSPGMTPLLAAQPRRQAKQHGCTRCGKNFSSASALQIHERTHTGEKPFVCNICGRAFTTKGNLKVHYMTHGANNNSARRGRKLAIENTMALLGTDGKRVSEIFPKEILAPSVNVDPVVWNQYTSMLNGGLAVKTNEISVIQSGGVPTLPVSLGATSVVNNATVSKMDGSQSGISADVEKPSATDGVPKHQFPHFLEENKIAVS
Technique: universal PBM
Molecule type: double-stranded DNA, one strand shown
Medium: in vitro
Tested at: 600 nM
Notes: 8-mer, flanks averaged, mean of replicates
Reading: higher = stronger binding
Quantity: E-score
GTCAATAA: 0.312
ACTAATTA: 0.349
CCTTGCCC: -0.18
GGCTGGGA: -0.231
AATAAAAT: 0.436
AGTTTGTC: 0.0715
CCGGAGTA: -0.19
ACACAGTG: -0.0483
AGTGTAGA: -0.00462
AGTAAGAA: 0.203
TATGGCGA: -0.043
AGTGTGTG: -0.0713
CCGGTGCC: -0.36
ATCTGCAT: 0.172
CAGCTACA: -0.0132
AAACACTG: 0.0822
CAGAAGTC: -0.0951
GAGCCAAC: -0.163

Series 2
Target: Histone acetyltransferase KAT6A, winged helix 2, GST fusion (KAT6A, Homo sapiens, UniProt Q92794, residues 85-181)
Technique: protein binding microarray
Molecule type: double-stranded DNA, one strand shown
Medium: in vitro
Tested at: not given
Notes: 8-mer, flanks averaged, mean of 2 arrays, mostly near background
Relative to: not given
Reading: higher = stronger binding
Quantity: E-score
Construct (chain): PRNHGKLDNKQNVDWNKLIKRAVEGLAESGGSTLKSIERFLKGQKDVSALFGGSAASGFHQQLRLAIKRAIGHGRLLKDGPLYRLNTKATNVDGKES
ACTTTAGC: -0.0556
CGTCCCTA: -0.00035
AGTGTCAT: -0.107
GGACACGA: 0.00953
GAGCGTCA: -0.0214
AGACGTTG: -0.0418
AACGACAT: 0.0925
AGCGAGCG: 0.201
CCTACAAG: -0.0718
AAAATGCC: 0.0507
AAGTTCCG: -0.0625
AACGCAAC: 0.188
GGTTCCAC: 0.0441
GATGGAAA: -0.00403
CGGTATGA: -0.0422
AAATGAGA: -0.08
TTAACAAA: 0.0487
TCCATACA: -0.114
CGGTGTAG: -0.0785
ACAATGCC: -0.144
AGTCTCTG: 0.00741
CTCTAAAC: -0.217
ATAGGCCC: -0.196
GCGGATAA: 0.146
CCATTACG: -0.214

Series 3
Target: BATF, bZIP domain (human)
Technique: DHFR protein complementation
Medium: yeast
Notes: single substitutions, most at no-binding floor
Relative to: wild-type JUN-FOS pair
Reading: higher = stronger binding
Quantity: binding fitness
Starting sequence: JUN, bZIP domain (human); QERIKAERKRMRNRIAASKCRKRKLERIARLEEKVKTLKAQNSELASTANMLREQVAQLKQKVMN; partner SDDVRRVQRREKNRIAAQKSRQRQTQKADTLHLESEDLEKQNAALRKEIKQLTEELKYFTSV
A49N: -0.976 natural log
K36R: 0.0539 natural log
S43P: -1.05 natural log
K36I: -0.163 natural log
S43K: 0.123 natural log
A49P: -1.24 natural log
L52R: -1.1 natural log
S43G: 0.018 natural log
Q55K: 0.0716 natural log
A49R: 0.064 natural log
E32F: -0.338 natural log
E44T: -0.111 natural log
A46Y: -0.168 natural log
A57K: -0.00706 natural log
L31A: -0.00876 natural log
V35T: -0.24 natural log
T48C: -0.0825 natural log
Q55M: -0.126 natural log
N42F: -0.283 natural log
L31W: -0.195 natural log
A29F: -0.113 natural log
Q41V: -0.0267 natural log
L52M: -0.19 natural log
E32N: -0.263 natural log
E44H: -0.0688 natural log

Series 4
Target: CCND1, cyclin fold, Cln2 fusion (human)
Technique: yeast growth competition, sequencing
Medium: yeast
Notes: weak parent motif
Relative to: not given
Reading: higher = stronger binding
Quantity: normalised enrichment score
Starting sequence: RB1 docking peptide (human); PKPLKKLRFDIEG
K5F: 0.106
E12M: 0.0268
K2Y: 0.994
R8E: -0.591
L4E: 0.00719
I11T: -0.613
K6F: 0.21
E12C: 0.0332
G13E: -0.0158
L7P: -0.171
L7Y: -0.362
K5C: 0.243
L4N: 0.13
F9P: -0.254
K5W: 0.378
P1C: 0.742
K2M: 0.0444
D10E: -1.09
R8F: 0.349
F9D: 0.277
L7H: -0.112
